Literature values as cited in several papers.
± marks the error that the study gave.
Target: acetylcholinesterase

| SMILES | effect on | mode | matrix | tested at | time | quantity | value |
| --- | --- | --- | --- | --- | --- | --- | --- |
| CN(C)c1ccc(/C=C/C(=O)c2ccc(OC(=O)N3CCCC3)cc2O)cc1 | enzyme activity | inhibitor |  |  |  | IC50 | 4.91 µM |
| Cc1ccccc1NC(=O)CN1CCN(C2=CC(=O)Cc3ccccc32)CC1 | enzyme activity | inhibitor |  |  |  | IC50 | 8.3 ± 0.04 µM |
| C[C@H]1CC[C@@H]2[C@@H](C)[C@H]3[C@H](C[C@H]4[C@@H]5CC=C6C[C@@H](O)CC[C@]6(C)[C@H]5CC[C@]34C)N2C1 |  |  |  | 5 µM |  | inhibition | 10% |
| Clc1ccc(-c2nnc(-c3cncc(-c4ccccc4)c3)o2)cc1 |  | inhibitor |  |  |  | IC50 | 0.0509 µM |
| O=C(/C=C/c1ccc(OCCN2CCNCC2)cc1)c1ccccc1 | enzyme activity | inhibitor |  |  |  | IC50 | 0.0153 µM |
| CCN(CC)CCNC(=O)c1ccc(CN2CCc3ccccc3C2)cc1 |  | inhibitor |  |  |  | IC50 | > 50 µM |
| O=C1/C(=C/c2ccc(F)cc2)CN(C(=O)C2CC3CCCN3C23C(=O)Nc2ccccc23)C/C1=C\c1ccc(F)cc1 (stereo not shown) |  | inhibitor |  |  |  | IC50 | 2.35 µM |
| O=c1c(-c2ccc(O)cc2)coc2cc(O)cc(O)c12 | enzyme activity |  |  |  |  | IC50 | > 100 µM |
| O=C(O)COc1ccc(C2CC(c3c[nH]c4ccccc34)=NN2C(=O)c2ccccc2)cc1 (stereo not shown) |  | inhibitor |  |  |  | IC50 | 13.8 ± 0.25 µM |
| CCOP(=O)(OCC)Oc1cc(C)nc(C(C)C)n1 | enzyme activity | inhibitor | thymus tissue |  | 20 min | IC30 | 0.04 µM |

Repeated from above:
| SMILES | effect on | mode | matrix | tested at | time | quantity | value |
| --- | --- | --- | --- | --- | --- | --- | --- |
| Clc1ccc(-c2nnc(-c3cncc(-c4ccccc4)c3)o2)cc1 |  | inhibitor |  |  |  | IC50 | 0.0509 µM |
